Assay results pooled from the literature.
Each line is one published result; not all experiments were run side by side. Values joined by “and” are separate records of one study, mostly repeats; a detail may differ.
Target: Fibroblast growth factor receptor 3 (FGFR3, Homo sapiens, UniProt P22607)

C=CC(=O)Nc1cccc(-c2cnc3[nH]cc(C(=O)NC(C)(C)C)c3n2)c1  inhibition (enzyme activity, inhibitor; 0.1 µM): 20%
CCn1cc(C(=O)O)c(=O)c2c(N)c(F)c(NC3CCCCC3)cc21  inhibition (kinase activity; 0.1 µM, together with: ATP at Km): 0.4%
NC(=O)[C@@H](O)C[C@H]1CCc2sc3ncnc(O[C@H]4CC[C@H](N5CCOCC5)CC4)c3c21  inhibition (enzyme activity, inhibitor; 10 µM): 24%
COc1c(OCCCN2CCOCC2)ccc2c1N=C(NC(=O)c1cnc(N)nc1)N1CCN=C21  remaining activity (kinase activity, inhibitor; 1 µM; reference: untreated control): 125%
CN1CCN(c2ccc(Nc3ncc(Cl)c(Nc4ccccc4P(C)(C)=O)n3)cc2Br)CC1  inhibition (enzyme activity, inhibitor; 0.1 µM): 27.7%
COc1cc(Nc2nccc(-c3cnn4nc(OC)ccc34)n2)cc(C(F)(F)F)c1  remaining binding (binding, competition with immobilised ligand; 1 µM): 100%
Nc1ncc(-c2cc(-c3cnn(CC(F)(F)F)c3)ncc2F)nc1C(=O)NC1CNCC(F)C1 (stereo not drawn)  remaining activity (enzyme activity; 1 µM; reference: DMSO control): 93.5%
CN1CCN(Cc2ccc(-c3ccc(CO[C@H]4CCC[C@@H]4NC(=O)c4cc(-c5cnn(C)c5)cnc4N)cc3)cc2)CC1  inhibition (enzyme activity, inhibitor; 0.1 µM): 5%
COc1ccc(C(=O)/C=C/c2ccccc2-c2c[nH]c3ccc(C#N)cc23)c(O)c1  inhibition (enzyme activity, inhibitor; 20 µM): 0%
N[C@H]1CC[C@H](Nc2nccc(-c3cccnc3Oc3ccc(NC(=O)NC4CC4)c4ccccc34)n2)CC1  log2 LFQ intensity (kinobead competition pulldown; HEK293/HCT116 lysate mixture; 10 µM, 1 h, 4 °C; lower = stronger competition): 20.9 and 19.6 and 20 and 20.2
CN1CCN(C(=O)c2ccc(-c3ccc4c(c3)/C(=C/c3ccc(N5CCOCC5)cc3)C(=O)N4)cc2)CC1  binding free energy (calculated from IC50): -11.2 kcal/mol
C=CC(=O)N1Cc2nc(-c3cc(-c4cc(Cl)cnc4Cl)c(F)cc3F)n(-c3ccncn3)c2C1  inhibition (cell-free assay; 1 µM): 7.4%

Some of these lines once more:
CN1CCN(Cc2ccc(-c3ccc(CO[C@H]4CCC[C@@H]4NC(=O)c4cc(-c5cnn(C)c5)cnc4N)cc3)cc2)CC1  inhibition (enzyme activity, inhibitor; 0.1 µM): 5%
